Assay results gathered from unrelated publications.
Numbers after ± are the reported error.

| SMILES | target or system | assay | test system | setting | how to read | endpoint | value |
| --- | --- | --- | --- | --- | --- | --- | --- |
| Cc1[nH]c(C)c(-c2cccc(-c3ccc(OC(F)(F)F)cc3)c2)c(=O)c1Br | Plasmodium yoelii | – | 17XL | 384-well | – | IC50 | 258 ± 67 nM |
| Oc1ccccc1-c1n[nH]cc1-c1ccnc2ccccc12 | KIC1 (Candida albicans) | kinase binding, MIB/MS competition | Candida albicans lysate | 10 µM | relative to: DMSO | log2 fold change | 0.32 |
| c1ccc2c(Cc3c[nH]c4ccccc34)c[nH]c2c1 | HBL-1 | – | – | 1 µM, 120 h | – | viability | 106% |
| CCN(CC)c1nc(N)c2c(N)nc3c(c2c1C#N)C(=O)CN3Cc1ccccc1 | Plasmodium yoelii | – | 17XL | 384-well | – | IC50 | 257 nM |
| c1coc(-c2n[nH]cc2-c2ccnc3ccccc23)c1 | GCN2 (Candida albicans) | kinase binding, MIB/MS competition | Candida albicans lysate | 10 µM | relative to: DMSO | log2 fold change | -0.31 |
| O=C(CCCCCN1C(=O)c2cccc3cccc(c23)C1=O)NO | HBL-1 | – | – | 1 µM, 120 h | – | viability | 26.3% |
| Cc1[nH]c(C)c([N+](=O)[O-])c(=O)c1-c1ccc(Oc2ccccc2)cc1 | Plasmodium yoelii | – | 17XL | 384-well | – | IC50 | 237 ± 63 nM |
| CC(C)NCC(O)c1ccc(O)c(O)c1 (stereo not drawn) | – | – | ventricular cardiomyocytes, C57BL/6 mouse | dose not given, 0.588 s | – | sarcomere length | 1.63 µm |
| COc1ccccc1S(=O)(=O)Nc1ccc2c(c1)CN(C)C(=O)N2 | HBL-1 | – | – | 1 µM, 120 h | – | viability | 77.1% |
| Cc1cc2nc(-c3ccc(C(=O)NC4CCN(Cc5ccccc5)CC4)s3)[nH]c2cc1C | Plasmodium yoelii | – | 17XL | 384-well | – | IC50 | > 20000 nM |
| O=C(O)CCCc1ccccc1 | HBL-1 | – | – | 0.5 µM, 120 h | – | viability | 122% |
| Cn1cc(-c2ccc(-c3cncc(Cl)c3N3CCC4(CCNC4=O)CC3)cc2)cn1 | COLO 205 | gene expression, microarray, measured: DLGAP5 mRNA | – | concentration not given, 6 h | relative to: untreated cells | log2 fold change | -2.36 |

Excerpt of the above:
| SMILES | target or system | assay | test system | setting | how to read | endpoint | value |
| --- | --- | --- | --- | --- | --- | --- | --- |
| Cc1[nH]c(C)c([N+](=O)[O-])c(=O)c1-c1ccc(Oc2ccccc2)cc1 | Plasmodium yoelii | – | 17XL | 384-well | – | IC50 | 237 ± 63 nM |
